# Results from different studies.
# Lines come from different studies, so protocols differ. “And” joins repeats or separate records; there may be more than shown. Numbers after ± are the reported error.
# TARDBP aggregated: TAR DNA-binding protein 43, aggregated (TARDBP, Homo sapiens, UniProt Q13148)
# UniProt Q13148, sequence (whole entry, looked up): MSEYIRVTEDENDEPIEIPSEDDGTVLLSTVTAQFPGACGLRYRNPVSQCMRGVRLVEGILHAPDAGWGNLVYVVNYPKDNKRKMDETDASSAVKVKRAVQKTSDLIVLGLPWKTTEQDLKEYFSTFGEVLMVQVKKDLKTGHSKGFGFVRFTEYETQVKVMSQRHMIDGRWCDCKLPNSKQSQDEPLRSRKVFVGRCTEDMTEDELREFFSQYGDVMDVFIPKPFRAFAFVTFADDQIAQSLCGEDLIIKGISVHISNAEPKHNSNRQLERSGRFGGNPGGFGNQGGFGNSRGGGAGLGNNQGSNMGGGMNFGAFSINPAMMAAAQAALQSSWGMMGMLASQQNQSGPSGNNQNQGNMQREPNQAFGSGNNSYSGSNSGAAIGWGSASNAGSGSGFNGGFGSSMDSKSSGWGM
# BRD4 BD1: Bromodomain-containing protein 4, BD1 (BRD4, Homo sapiens, UniProt O60885)
# CASP6: Caspase-6 (CASP6, Homo sapiens, UniProt P55212)
# UniProt P55212, sequence (whole entry, looked up): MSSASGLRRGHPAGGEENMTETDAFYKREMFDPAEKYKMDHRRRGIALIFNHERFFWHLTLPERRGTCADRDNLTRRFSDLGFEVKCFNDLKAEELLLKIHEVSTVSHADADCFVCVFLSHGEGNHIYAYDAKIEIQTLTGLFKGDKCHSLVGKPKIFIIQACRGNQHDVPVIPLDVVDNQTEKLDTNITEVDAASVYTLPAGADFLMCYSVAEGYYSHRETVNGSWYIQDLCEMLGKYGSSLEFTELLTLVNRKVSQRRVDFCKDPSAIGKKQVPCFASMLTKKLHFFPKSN
# TDP1: Tyrosyl-DNA phosphodiesterase 1 (TDP1, Homo sapiens, UniProt Q9NUW8)
# UniProt Q9NUW8, sequence (whole entry, looked up): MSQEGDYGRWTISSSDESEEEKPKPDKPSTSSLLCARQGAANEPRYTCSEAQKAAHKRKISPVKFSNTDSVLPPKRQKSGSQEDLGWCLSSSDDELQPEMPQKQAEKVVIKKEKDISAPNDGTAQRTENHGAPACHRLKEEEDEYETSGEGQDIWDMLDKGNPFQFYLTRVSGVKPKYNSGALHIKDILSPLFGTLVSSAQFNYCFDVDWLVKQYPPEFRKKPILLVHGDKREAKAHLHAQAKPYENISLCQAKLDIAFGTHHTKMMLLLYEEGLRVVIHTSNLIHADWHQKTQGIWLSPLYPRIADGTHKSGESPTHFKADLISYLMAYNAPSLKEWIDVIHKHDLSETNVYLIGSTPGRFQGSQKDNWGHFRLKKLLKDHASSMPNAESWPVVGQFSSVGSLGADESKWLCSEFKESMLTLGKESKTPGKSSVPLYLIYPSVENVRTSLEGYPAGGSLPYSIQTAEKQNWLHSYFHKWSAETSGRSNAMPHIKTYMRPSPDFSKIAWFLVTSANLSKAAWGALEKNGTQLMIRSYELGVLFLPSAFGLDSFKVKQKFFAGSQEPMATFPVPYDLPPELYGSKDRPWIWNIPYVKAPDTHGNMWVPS
# CHRAC1 Cys55: Chromatin accessibility complex protein 1, Cys55 (CHRAC1, Homo sapiens, UniProt Q9NRG0)
# UniProt Q9NRG0, sequence (whole entry, looked up): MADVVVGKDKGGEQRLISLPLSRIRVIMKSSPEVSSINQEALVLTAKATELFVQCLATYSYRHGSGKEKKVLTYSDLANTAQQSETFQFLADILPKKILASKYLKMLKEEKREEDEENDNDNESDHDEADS
# Gria1: Glutamate receptor 1 (Gria1, Rattus norvegicus, UniProt P19490)
# UniProt Q9CAJ0, sequence (whole entry, looked up): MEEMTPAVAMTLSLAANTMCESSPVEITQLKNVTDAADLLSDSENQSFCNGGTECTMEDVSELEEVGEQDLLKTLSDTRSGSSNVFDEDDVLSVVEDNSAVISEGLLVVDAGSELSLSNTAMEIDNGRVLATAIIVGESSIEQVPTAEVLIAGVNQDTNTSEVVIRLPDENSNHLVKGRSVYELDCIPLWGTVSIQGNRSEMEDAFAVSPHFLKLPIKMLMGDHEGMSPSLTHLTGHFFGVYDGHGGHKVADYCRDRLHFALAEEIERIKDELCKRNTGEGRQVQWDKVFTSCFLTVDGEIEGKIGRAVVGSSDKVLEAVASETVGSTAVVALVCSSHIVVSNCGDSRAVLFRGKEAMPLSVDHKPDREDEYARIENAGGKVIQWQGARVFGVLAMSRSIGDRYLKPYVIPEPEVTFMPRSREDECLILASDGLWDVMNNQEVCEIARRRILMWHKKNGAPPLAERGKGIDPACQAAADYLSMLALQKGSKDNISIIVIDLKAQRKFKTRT
# UniProt P19490, sequence (whole entry, looked up): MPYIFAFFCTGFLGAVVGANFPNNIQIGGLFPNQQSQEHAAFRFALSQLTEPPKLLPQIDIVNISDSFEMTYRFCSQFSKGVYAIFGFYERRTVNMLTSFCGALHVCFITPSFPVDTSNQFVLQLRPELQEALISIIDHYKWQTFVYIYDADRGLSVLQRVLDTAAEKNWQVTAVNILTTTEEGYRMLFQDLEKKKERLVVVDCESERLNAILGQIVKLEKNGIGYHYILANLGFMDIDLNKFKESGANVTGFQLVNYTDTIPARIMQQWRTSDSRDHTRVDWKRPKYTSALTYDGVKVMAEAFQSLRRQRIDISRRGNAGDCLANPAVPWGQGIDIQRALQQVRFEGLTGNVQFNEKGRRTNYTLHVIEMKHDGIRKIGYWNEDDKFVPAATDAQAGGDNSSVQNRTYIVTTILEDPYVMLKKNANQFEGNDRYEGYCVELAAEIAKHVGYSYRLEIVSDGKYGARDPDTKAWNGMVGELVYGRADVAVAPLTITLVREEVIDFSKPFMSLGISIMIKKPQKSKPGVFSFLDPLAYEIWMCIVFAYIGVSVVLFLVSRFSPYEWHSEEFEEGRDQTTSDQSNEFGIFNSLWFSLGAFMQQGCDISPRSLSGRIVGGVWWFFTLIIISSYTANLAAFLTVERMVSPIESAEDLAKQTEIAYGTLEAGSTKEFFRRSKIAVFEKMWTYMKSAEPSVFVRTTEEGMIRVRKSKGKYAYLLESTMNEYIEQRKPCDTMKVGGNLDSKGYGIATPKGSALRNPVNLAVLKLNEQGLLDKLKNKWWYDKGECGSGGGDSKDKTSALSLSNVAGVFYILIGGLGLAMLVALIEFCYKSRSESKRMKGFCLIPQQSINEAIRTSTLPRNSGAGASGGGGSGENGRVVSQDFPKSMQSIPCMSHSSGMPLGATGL
# UniProt P08191, sequence (whole entry, unmodified, looked up): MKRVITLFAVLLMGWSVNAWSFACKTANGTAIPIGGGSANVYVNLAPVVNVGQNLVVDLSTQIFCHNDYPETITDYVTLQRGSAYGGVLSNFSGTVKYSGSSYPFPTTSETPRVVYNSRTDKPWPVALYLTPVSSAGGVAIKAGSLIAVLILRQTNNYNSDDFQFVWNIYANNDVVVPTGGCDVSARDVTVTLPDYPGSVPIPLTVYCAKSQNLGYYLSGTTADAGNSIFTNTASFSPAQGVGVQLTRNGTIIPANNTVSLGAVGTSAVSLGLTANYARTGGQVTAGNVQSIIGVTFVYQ
# UniProt P51648, sequence (whole entry, looked up): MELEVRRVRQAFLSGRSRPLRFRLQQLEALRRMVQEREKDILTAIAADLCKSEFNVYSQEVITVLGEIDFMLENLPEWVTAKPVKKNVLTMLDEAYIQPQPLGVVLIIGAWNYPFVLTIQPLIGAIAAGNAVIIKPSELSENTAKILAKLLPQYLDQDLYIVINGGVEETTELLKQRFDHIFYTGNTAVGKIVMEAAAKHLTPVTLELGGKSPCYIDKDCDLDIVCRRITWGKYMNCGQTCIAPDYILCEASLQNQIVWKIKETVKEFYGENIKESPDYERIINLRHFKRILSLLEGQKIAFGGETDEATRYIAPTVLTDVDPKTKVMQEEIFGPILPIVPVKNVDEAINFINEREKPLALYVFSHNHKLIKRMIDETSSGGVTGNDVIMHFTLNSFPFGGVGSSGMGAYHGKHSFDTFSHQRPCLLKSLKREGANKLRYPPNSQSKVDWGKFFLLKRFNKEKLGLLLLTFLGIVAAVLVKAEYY
# UniProt P27338, sequence (whole entry, looked up): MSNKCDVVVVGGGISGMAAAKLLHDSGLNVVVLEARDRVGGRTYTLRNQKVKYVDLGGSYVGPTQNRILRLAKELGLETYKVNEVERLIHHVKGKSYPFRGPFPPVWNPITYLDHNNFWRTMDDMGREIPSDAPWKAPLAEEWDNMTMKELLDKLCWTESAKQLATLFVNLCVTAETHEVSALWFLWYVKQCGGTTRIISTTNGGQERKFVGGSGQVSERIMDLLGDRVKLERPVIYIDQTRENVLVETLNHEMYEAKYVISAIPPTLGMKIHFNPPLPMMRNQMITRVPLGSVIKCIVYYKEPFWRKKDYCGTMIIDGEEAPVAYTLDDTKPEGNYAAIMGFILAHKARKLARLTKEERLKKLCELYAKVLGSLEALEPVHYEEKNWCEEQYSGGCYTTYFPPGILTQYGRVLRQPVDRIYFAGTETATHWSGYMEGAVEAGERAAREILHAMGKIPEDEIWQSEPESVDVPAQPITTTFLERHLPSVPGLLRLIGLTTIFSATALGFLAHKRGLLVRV
# UniProt P00698, sequence (whole entry, looked up): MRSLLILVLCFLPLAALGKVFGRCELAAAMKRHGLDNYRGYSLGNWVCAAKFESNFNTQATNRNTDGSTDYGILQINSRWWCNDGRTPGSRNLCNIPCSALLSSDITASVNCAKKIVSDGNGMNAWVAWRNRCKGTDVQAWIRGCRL
# UniProt P41145, sequence (whole entry, looked up): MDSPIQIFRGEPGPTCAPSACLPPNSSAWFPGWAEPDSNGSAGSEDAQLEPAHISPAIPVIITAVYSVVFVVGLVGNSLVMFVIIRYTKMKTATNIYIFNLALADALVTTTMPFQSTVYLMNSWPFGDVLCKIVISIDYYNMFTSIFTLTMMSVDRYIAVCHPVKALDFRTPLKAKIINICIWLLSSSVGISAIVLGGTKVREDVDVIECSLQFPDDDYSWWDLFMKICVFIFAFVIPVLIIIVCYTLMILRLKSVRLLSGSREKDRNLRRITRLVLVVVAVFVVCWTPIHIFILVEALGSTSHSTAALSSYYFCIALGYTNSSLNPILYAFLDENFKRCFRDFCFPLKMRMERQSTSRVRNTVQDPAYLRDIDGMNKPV
# UniProt P20618, sequence (whole entry, looked up): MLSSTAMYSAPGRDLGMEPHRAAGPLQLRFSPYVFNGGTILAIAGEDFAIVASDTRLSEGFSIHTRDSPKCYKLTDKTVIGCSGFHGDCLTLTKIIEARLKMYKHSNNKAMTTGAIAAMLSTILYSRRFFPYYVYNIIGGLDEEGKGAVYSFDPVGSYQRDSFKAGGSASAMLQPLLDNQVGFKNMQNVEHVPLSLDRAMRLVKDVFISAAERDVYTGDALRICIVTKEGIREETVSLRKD
SMILES,target,assay,test system,setting,how to read,quantity,value
C#CCOC(=O)[C@@]1(C)C=C(C(=O)OC(C)(C)C)C(=O)CC1,"MAPK1 (Homo sapiens, UniProt P28482)","enzyme activity, D-SENSOR",,"0.5487 µM, mean of replicates",,normalized kinase activity,1.02
NC(=O)c1cccc(CN(Cc2ccc(Cl)c(Cl)c2)C(=O)NC(CN2CCCCC2)c2ccccc2)c1 (stereo not shown),"OPRK1 (Homo sapiens, UniProt P41145)",Gi signalling,,,,log(tau/KA),6.74
CC(C)c1ccc(/C=C/C(=O)c2nc3ccccc3[nH]2)cc1,"MAOB (Homo sapiens, UniProt P27338)","enzyme activity, inhibitor",,1 µM,,activity vs control,72%
O=C1c2sc(-c3ccc(N4CCC(CO)CC4)nc3F)nc2CCN1c1cccnc1,TARDBP aggregated,radioligand binding,"human, FTLD-TDP type C sarkosyl-insoluble extract",102.04 nM,,specific binding,0.54 nM and 0.473 nM and 0.894 nM
CCCCOc1ccc(C(=O)OCCN2CC=CCC2)cc1,"CHRM5 (Homo sapiens, UniProt P08912)",,membranes,"100 µM, 15 h, no carbachol",reference: control,basal binding,1.21 ± 0.06 fold
O=C1CCCN1c1cccc(NS(=O)(=O)c2ccc(F)c(Cl)c2)c1,BRD4 BD1,"thermal stability, DSF",,,,ΔTm,-0.21 °C
CC(=O)N[C@@H](CC(C)C)C(=O)N[C@@H](CCC(=O)O)C(=O)N[C@@H](Cc1c[nH]cn1)C(=O)N[C@@H](CC(=O)O)C(=O)COC(=O)c1c(C)cccc1C,CASP6,"enzyme activity, inhibitor",,,,kinact/KI,102000 M⁻¹ s⁻¹
CN(C(=O)[C@@H]1CSCC(=O)N[C@@H](Cc2ccccc2)C(=O)N[C@@H](CO)C(=O)N[C@@H](Cc2ccccc2)C(=O)N[C@@H](Cc2ccc(O)cc2)C(=O)N[C@@H](Cc2ccc(O)cc2)C(=O)N[C@@H](Cc2c[nH]cn2)C(=O)N[C@@H](Cc2c[nH]c3ccccc23)C(=O)N1)[C@@H](Cc1ccccc1)C(N)=O,BRD4 BD1,"thermal stability, DSF",,200 µM,,ΔTm,-0.6 °C
O=C(O)c1ccc(Nc2c(-c3ccccc3)nc3ccc(CON=Cc4ccc(OC5CCCCC5)nc4)cn23)cc1 (mixture of isomers),TDP1,"enzyme activity, inhibitor",,"100 µM, unpurified compound",,inhibition,35.4%
CCCCCCCCCCCCCCCC(=O)OCC(CSC[C@H](N)C(=O)N[C@@H](CO)C(=O)N[C@@H](CCCCN)C(=O)N[C@@H](CCCCN)C(=O)N[C@@H](CCCCN)C(=O)N[C@@H](CCCCN)C(=O)NCCCCCC(=O)N[C@@H](CCCCN)C(=O)N[C@@H](CC(C)C)C(=O)N[C@H](C(=O)N[C@@H](Cc1ccccc1)C(=O)N[C@@H](Cc1ccccc1)C(=O)N[C@@H](Cc1ccc2ccccc2c1)C(=O)O)C(C)C)OC(=O)CCCCCCCCCCCCCCC (stereo partly shown),"Amyloid-beta precursor protein, fibrillar amyloid-beta (APP, Homo sapiens, UniProt P05067)",TEM,,"2.0 eq, 3 h, fibril 4, added: APP 20 µM",,fibril diameter,99.7 nm
CC(=O)N[C@@H](CC(=O)O)C(=O)N[C@@H](CCC(=O)O)C(=O)N[C@@H](CC(C)C)C(=O)N[C@@H](CC(=O)O)C(=O)COC(=O)c1c(C)cccc1C,CASP6,"enzyme activity, inhibitor",,,,kinact/KI,327000 M⁻¹ s⁻¹
CC(C)NCCCn1c(Sc2cc3c(cc2I)OCO3)nc2c(N)ncnc21,"HSP90AA1/HSP90B1 (Homo sapiens, UniProt P07900+P41148, E62I/S52A/Y61L)",ITC,,,,ΔG,-10.32 ± 0.07 kcal/mol
O=C(O)c1ccc(Nc2c(-c3ccccc3)nc3ccc(CON=Cc4ccc(N5CCC(CO)CC5)cc4)cn23)cc1,TDP1,"enzyme activity, inhibitor",,"100 µM, unpurified compound",,inhibition,10.1%
CCCCCC(O)/C=C/C=O (stereo not shown),CHRAC1 Cys55,competitive isoTOP-ABPP,"proteome, soluble, MDA-MB-231","100 µM, 60 min, added: iodoacetamide probe","reference: DMSO over compound-treated, higher = stronger cysteine blockade",isoTOP-ABPP competition ratio,1.9
O=C(O)Cc1cc2c(cc1C(=O)c1cccc(I)c1)OCO2,Gria1,"glutamate-evoked current, whole-cell patch clamp",HEK-293T,concentration not given,,current amplitude,271 ± 24 pA
CC(=O)N[C@@H](Cc1ccc(O)cc1)C(=O)N1CSC[C@H]1C(=O)N[C@@H](C)C(=O)N[C@@H](CC(=O)O)C(=O)COC(=O)c1c(C)cccc1C,CASP6,"enzyme activity, inhibitor",,,,kinact/KI,300 M⁻¹ s⁻¹
O=C(O)c1ccc(Nc2c(-c3ccccc3)nc3ccc(CON=Cc4cccnc4Oc4ccc(Cl)cc4)cn23)cc1,TDP1,"enzyme activity, inhibitor",,"100 µM, unpurified compound",,inhibition,-6.3%
CC[C@H](NC(=O)[C@@H](NC(=O)[C@H](CC(=O)O)NC(C)=O)[C@@H](C)O)C(=O)N[C@@H](CC(=O)O)C(=O)COC(=O)c1c(C)cccc1C,CASP6,"enzyme activity, inhibitor",,,,kinact/KI,31500 M⁻¹ s⁻¹
COC(=O)Cc1cc2c(cc1C(=O)c1ccc(Cl)cc1Cl)OCO2,Gria1,"glutamate-evoked current, whole-cell patch clamp",HEK-293T,"concentration not given, glutamate alone after washout, added: glutamate",,current amplitude after recovery,939 ± 42 pA
O=[N+]([O-])c1cc(Br)cc([N+](=O)[O-])c1NS(=O)(=O)c1ccc(Br)cc1,"HAB1 (Arabidopsis thaliana, UniProt Q9CAJ0)",inhibitor,,"20 µM, no PYL receptor",higher = more activity,phosphatase activity,0.81 a.u. and 0.887 a.u. and 1 a.u.
Cc1cc(C)cc(COc2cc3c(cc2OCc2cc(C)cc(C)c2)C2CC(O)(Cc4cn(CCOCCOCCNC(=O)CCCCC5SCC6NC(=O)NC65)nn4)CC(C)N2CC3)c1 (stereo not shown),"ALDH3A2 (Homo sapiens, UniProt P51648)",biotinylated probe pull-down,,10 µM probe,reference: heavy over light,SILAC ratio,5.35
CCCCCCCCCCCCC/C=C/C=O,CHRAC1 Cys55,competitive isoTOP-ABPP,"proteome, soluble, MDA-MB-231","100 µM, 60 min, added: iodoacetamide probe","reference: DMSO over compound-treated, higher = stronger cysteine blockade",isoTOP-ABPP competition ratio,1.1
CC(=O)N[C@@H](CC(C)C)C(=O)N[C@@H](CCC(=O)O)C(=O)N[C@H](C(=O)N[C@@H](CC(=O)O)C(=O)COC(=O)c1c(C)cccc1C)[C@@H](C)OCc1ccccc1,CASP6,"enzyme activity, inhibitor",,,,kinact/KI,351000 M⁻¹ s⁻¹
COc1ccc(C(=O)CC2(O)C(=O)Nc3c(Br)cc(C)cc32)cc1 (stereo not shown),"Uncharacterized protein (Trypanosoma brucei brucei, UniProt Q386Q8)","inhibitor, coupled colorimetric",Trypanosoma brucei,,,Hill slope,-1.46
CCCCCCCO[C@H]1O[C@H](CO)[C@@H](O)[C@H](O)[C@@H]1O,"Type 1 fimbrin D-mannose specific adhesin, lectin domain (fimH, Escherichia coli K-12, UniProt P08191)","binding, isothermal titration calorimetry",,"25 °C, individual direct titrations",,-TΔS,1.63 kcal/mol and 1.86 kcal/mol
CN1CCC[C@@H]1C(=O)N[C@@H](Cc1ccc(-c2ccccc2)cc1)B(O)O,"Proteasome component C5/PSMB5 (Homo sapiens, UniProt P20618+P28074)","enzyme activity, inhibitor, progress curve",,human constitutive β5c,,kobs/[I],8300 M⁻¹ s⁻¹
O=C1c2sc(-c3ccc(N4CCC(F)C4)nc3F)nc2CCN1c1cccnc1 (stereo not shown),TARDBP aggregated,radioligand binding,control brain sarkosyl-insoluble extract,6.91 nM,,specific binding,-0.002 nM
CCCCc1nc(C=NOCc2ccc3nc(-c4ccccc4)c(Nc4ccc(C(=O)O)cc4)n3c2)c[nH]1 (mixture of isomers),TDP1,"enzyme activity, inhibitor",,"100 µM, unpurified compound",,inhibition,14.6%
COC(=O)Cc1cc2c(cc1C(=O)c1ccccc1Cl)OCO2,Gria1,"glutamate-evoked current, whole-cell patch clamp",HEK-293T,"concentration not given, weighted tau, 500 ms pulse, added: glutamate",,desensitization time constant,1.9 ± 0.1 ms
Cc1ccc(S(=O)(=O)N2CC(NC(=O)c3ccc(C#N)cc3)C2=O)cc1 (stereo not shown),"glpG (Escherichia coli, UniProt P09391)","enzyme activity, inhibitor, gel-based chimeric protein substrate",,,,IC50,inactive
O=C(O)c1ccc(Nc2c(-c3ccccc3)nc3ccc(CON=Cc4cccc5[nH]ccc45)cn23)cc1 (mixture of isomers),TDP1,"enzyme activity, inhibitor",,"100 µM, unpurified compound",,inhibition,39.7%
N[C@@H](CO)C(=O)O,"Lysozyme C (LYZ, Gallus gallus, UniProt P00698)",sedimentation equilibrium AUC,,,,particle diameter,5.2 nm
COC(=O)Cc1cc2c(cc1C(=O)c1cccc(I)c1)OCO2,Gria1,"glutamate-evoked current, whole-cell patch clamp",HEK-293T,"concentration not given, weighted tau, 500 ms pulse, added: glutamate",,desensitization time constant,2.6 ± 0.1 ms
O=C(O)c1ccc(Nc2c(-c3ccc(CON=Cc4cccc(-n5cccc5)c4)cc3)nc3cc(-c4ccccc4)ccn23)cc1,TDP1,"enzyme activity, inhibitor",,"100 µM, unpurified compound",,inhibition,21.8%

# A few entries again:
SMILES,target,assay,test system,setting,how to read,quantity,value
COC(=O)Cc1cc2c(cc1C(=O)c1ccccc1Cl)OCO2,Gria1,"glutamate-evoked current, whole-cell patch clamp",HEK-293T,"concentration not given, weighted tau, 500 ms pulse, added: glutamate",,desensitization time constant,1.9 ± 0.1 ms
Cc1ccc(S(=O)(=O)N2CC(NC(=O)c3ccc(C#N)cc3)C2=O)cc1 (stereo not shown),"glpG (Escherichia coli, UniProt P09391)","enzyme activity, inhibitor, gel-based chimeric protein substrate",,,,IC50,inactive
O=C(O)c1ccc(Nc2c(-c3ccccc3)nc3ccc(CON=Cc4cccc5[nH]ccc45)cn23)cc1 (mixture of isomers),TDP1,"enzyme activity, inhibitor",,"100 µM, unpurified compound",,inhibition,39.7%
N[C@@H](CO)C(=O)O,"Lysozyme C (LYZ, Gallus gallus, UniProt P00698)",sedimentation equilibrium AUC,,,,particle diameter,5.2 nm
COC(=O)Cc1cc2c(cc1C(=O)c1cccc(I)c1)OCO2,Gria1,"glutamate-evoked current, whole-cell patch clamp",HEK-293T,"concentration not given, weighted tau, 500 ms pulse, added: glutamate",,desensitization time constant,2.6 ± 0.1 ms
O=C(O)c1ccc(Nc2c(-c3ccc(CON=Cc4cccc(-n5cccc5)c4)cc3)nc3cc(-c4ccccc4)ccn23)cc1,TDP1,"enzyme activity, inhibitor",,"100 µM, unpurified compound",,inhibition,21.8%
